Assay results of several laboratories.
Parts stem from different laboratories: compare values within a part only. Positions count from the first letter of the parent shown.

Block 1
Target: Sal-like protein 4, full length isoform B (SALL4, Homo sapiens, UniProt Q9UJQ4-2, residues 1-616)
Technique: universal PBM
Form: double-stranded DNA, one strand shown
Matrix: in vitro
Tested at: not given
Setting: 8-mer, flanks averaged, mean of replicates
Direction: higher = stronger binding
Measurement: E-score
Oligonucleotide = AAGAGTGT; result = 0.0945
Oligonucleotide = CACTCCTG; result = -0.0842
Oligonucleotide = CGAGCGAC; result = -0.196
Oligonucleotide = ATAGTCTG; result = 0.164
Oligonucleotide = AAAATATC; result = 0.36
Oligonucleotide = CCAGTCCG; result = -0.325
Oligonucleotide = GCAACTAC; result = 0.0966
Oligonucleotide = ACGTGACT; result = -0.0305
Oligonucleotide = CTTGGTGC; result = -0.0713
Oligonucleotide = ATAACCGC; result = 0.129
Oligonucleotide = AAATGATC; result = 0.118
Oligonucleotide = CGTTTTCC; result = 0.0854
Oligonucleotide = GAACATGC; result = -0.0403
Oligonucleotide = TCGCGTCA; result = -0.0809
Oligonucleotide = GAAGGATA; result = 0.0414
Oligonucleotide = CCCTATTA; result = 0.288
Oligonucleotide = GATCTCCA; result = -0.195
Oligonucleotide = AGGTTTTG; result = -0.0999
Oligonucleotide = AATGCTTC; result = 0.0958
Oligonucleotide = GCTCCGGA; result = -0.21
Oligonucleotide = AACTATGG; result = 0.111
Oligonucleotide = ATCTCCCA; result = -0.0611

Block 2
Target: Histone acetyltransferase KAT6A, winged helix 1, GST fusion (KAT6A, Homo sapiens, UniProt Q92794, residues 1-85)
Technique: protein binding microarray
Form: double-stranded DNA, one strand shown
Matrix: in vitro
Tested at: not given
Setting: 8-mer, flanks averaged, mean of 2 arrays, mostly near background
Relative to: not given
Direction: higher = stronger binding
Measurement: E-score
Target sequence (chain): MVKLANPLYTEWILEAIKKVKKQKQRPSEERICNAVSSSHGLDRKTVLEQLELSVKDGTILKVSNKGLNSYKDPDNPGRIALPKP
Oligonucleotide = TGACACAA; result = -0.11
Oligonucleotide = CCGTTGTA; result = 0.116
Oligonucleotide = AAGCGTAG; result = -0.00522
Oligonucleotide = GGCAAACA; result = 0.0481
Oligonucleotide = ATAGTGAT; result = -0.0444
Oligonucleotide = AAATTCCG; result = -0.054
Oligonucleotide = GCATAGCC; result = -0.0159
Oligonucleotide = CTATGAAC; result = 0.0146
Oligonucleotide = CGCGCCAA; result = 0.358
Oligonucleotide = ACCGCCGA; result = 0.309
Oligonucleotide = ACTCAAGG; result = -0.193
Oligonucleotide = GGTTGCTA; result = -0.00562
Oligonucleotide = AACCGGCT; result = 0.215
Oligonucleotide = CTGTACGA; result = -0.154
Oligonucleotide = AACTGATA; result = -0.052
Oligonucleotide = CCGCATCG; result = 0.313
Oligonucleotide = CAACGTGA; result = -0.112
Oligonucleotide = CGCAGTGA; result = 0.148
Oligonucleotide = TACAATGA; result = -0.241

Block 3
Target: ABI1, truncated, D143A, DHFR fusion (Arabidopsis thaliana)
Technique: DHFR PCA, deep sequencing
Matrix: yeast
Setting: methotrexate growth selection, single substitutions
With: (+)-ABA 200 µM
Relative to: wild-type fitted maximum
Direction: higher = stronger binding
Measurement: relative binding score
Starting sequence: PYL1, truncated, DHFR fusion (Arabidopsis thaliana); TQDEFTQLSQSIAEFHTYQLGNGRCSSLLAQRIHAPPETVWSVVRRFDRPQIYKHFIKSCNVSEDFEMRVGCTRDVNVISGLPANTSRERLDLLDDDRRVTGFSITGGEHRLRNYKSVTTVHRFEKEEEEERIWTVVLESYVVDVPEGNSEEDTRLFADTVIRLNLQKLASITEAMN; partner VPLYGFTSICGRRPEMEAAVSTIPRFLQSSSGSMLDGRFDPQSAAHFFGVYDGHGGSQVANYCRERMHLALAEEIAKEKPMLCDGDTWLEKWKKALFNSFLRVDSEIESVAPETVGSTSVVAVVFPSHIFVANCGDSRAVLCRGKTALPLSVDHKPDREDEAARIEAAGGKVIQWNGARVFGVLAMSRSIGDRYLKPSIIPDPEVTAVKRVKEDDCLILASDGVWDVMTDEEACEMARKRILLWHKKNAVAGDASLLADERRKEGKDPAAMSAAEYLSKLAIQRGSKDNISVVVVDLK
Substitution = V62N; result = 54.9%
Substitution = N149W; result = 4.17%
Substitution = D48S; result = 73%
Substitution = V100H; result = 71.5%
Substitution = E125L; result = 101%
Substitution = M176P; result = 96.3%
Substitution = L8W; result = 100%
Substitution = K54H; result = 9.55%
Substitution = I33Y; result = -4.34%
Substitution = Q19S; result = 102%
Substitution = E64Q; result = 103%
Substitution = N77T; result = 106%
Substitution = Q167W; result = 70.4%
Substitution = S87V; result = 53%
Substitution = E152Q; result = 97.1%
Substitution = E128T; result = 109%
Substitution = D95L; result = 85.7%
Substitution = I105C; result = 86.1%
Substitution = S63Q; result = 99.5%
Substitution = L138S; result = 8.15%
Substitution = S63L; result = 92.5%
Substitution = R155F; result = 32.1%
Substitution = R74Q; result = 5.88%
Substitution = Q167K; result = 104%
Substitution = E147D; result = 101%

Block 4
Target: CCND2, cyclin fold, Cln2 fusion (human)
Technique: yeast growth competition, sequencing
Matrix: yeast
Setting: weak parent motif
Relative to: not given
Direction: higher = stronger binding
Measurement: normalised enrichment score
Starting sequence: RB1 docking peptide (human); PKPLKKLRFDIEG
Substitution = TKPLKKLRFDIEG [P1T]; result = 0.455
Substitution = PKPLKKPRFDIEG [L7P]; result = 0.263
Substitution = PKPQKKLRFDIEG [L4Q]; result = -0.00881
Substitution = PKPLKKLGFDIEG [R8G]; result = -0.314
Substitution = PKRLKKLRFDIEG [P3R]; result = 0.322
Substitution = PKPLKKLRFDICG [E12C]; result = 0.277
Substitution = PKPLKKLRFDNEG [I11N]; result = 0.588
Substitution = PKPSKKLRFDIEG [L4S]; result = 0.374
Substitution = PKPLKKLRFDIPG [E12P]; result = 0.309
Substitution = PKPLKKVRFDIEG [L7V]; result = 0.529
Substitution = PKPLKKLRFDIAG [E12A]; result = -0.0937
Substitution = PKPLKRLRFDIEG [K6R]; result = 0.351
Substitution = PMPLKKLRFDIEG [K2M]; result = 0.344
Substitution = PKPLKKLWFDIEG [R8W]; result = 0.401
Substitution = PKPLKKLFFDIEG [R8F]; result = 0.155
Substitution = PKPLKMLRFDIEG [K6M]; result = 0.337
Substitution = PKHLKKLRFDIEG [P3H]; result = -0.384
Substitution = PKPLKKLNFDIEG [R8N]; result = 0.216
Substitution = PKPLKKLRFDEEG [I11E]; result = -0.0713
Substitution = PKALKKLRFDIEG [P3A]; result = 0.325

A few entries again (block 4):
Substitution = PMPLKKLRFDIEG [K2M]; result = 0.344
Substitution = PKPLKKLWFDIEG [R8W]; result = 0.401
Substitution = PKPLKKLFFDIEG [R8F]; result = 0.155
Substitution = PKPLKMLRFDIEG [K6M]; result = 0.337
Substitution = PKHLKKLRFDIEG [P3H]; result = -0.384
Substitution = PKPLKKLNFDIEG [R8N]; result = 0.216
Substitution = PKPLKKLRFDEEG [I11E]; result = -0.0713
